# Results collected from several papers.
# Numbered parts are unrelated; each lists some results of a single study. Positions count from the first letter of the parent shown.

# Set 1
# Target: Interferon regulatory factor 3, full length, phosphomimetic (IRF3, Homo sapiens, UniProt Q14653, residues 1-427, S386D/S396D/S398D/S402D/T404D/S405D)
# Technique: protein-binding microarray
# Form: double-stranded DNA, one strand shown
# Matrix: in vitro
# Tested at: 2540 nM top
# Setting: 60-bp whole probe
# Together with: salmon DNA 0.4 mg/ml
# Reference: random background probes
# Direction: higher = stronger binding
# Shared flanks, not repeated: GCCTAGCAC … GTCTTGATTCGCTTGACGCTGCTG
# Construct (chain): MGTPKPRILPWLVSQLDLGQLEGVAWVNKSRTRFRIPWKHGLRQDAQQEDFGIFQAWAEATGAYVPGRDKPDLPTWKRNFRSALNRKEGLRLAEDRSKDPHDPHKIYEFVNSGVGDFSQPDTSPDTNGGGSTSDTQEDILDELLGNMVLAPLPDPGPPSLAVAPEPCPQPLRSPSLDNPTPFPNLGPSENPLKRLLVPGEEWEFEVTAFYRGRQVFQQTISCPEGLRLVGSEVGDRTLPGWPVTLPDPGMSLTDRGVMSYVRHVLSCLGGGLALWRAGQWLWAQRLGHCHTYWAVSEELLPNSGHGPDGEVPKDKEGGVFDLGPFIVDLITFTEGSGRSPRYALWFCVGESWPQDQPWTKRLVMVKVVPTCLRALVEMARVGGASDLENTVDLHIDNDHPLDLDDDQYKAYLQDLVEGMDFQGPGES
Sequence,fitted relative affinity
TTAGGTATCGACTATCGGATAGTGCTA,0.591 z-score
TTAATGTGTTCTTGGATTCGGTGCTAG,0.149 z-score
GACGGATTCGGTCTCGGGACGTGCTAG,2.94 z-score
TTAGACTTCAGTATCGATTAGTGCTAG,0.549 z-score
AATTGTCTCTGTCCCTGTTTGTGCTAG,0.526 z-score
TTAGGTTTTGGGACTGGGTTAGTGCTA,0.371 z-score
TCACTGGTCACTCTCTGACTGTGCTAG,-0.14 z-score
CGCTCCCTTTATTCCACATTGTGCTAG,2.55 z-score
TCAGGTTTGAGTCTTCTACTGTGCTAG,-0.064 z-score
GACGGTCTCGGTTTCGGGCCGTGCTAG,3.29 z-score
TCAGATGTCAAACTCACACTGTGCTAG,0.0943 z-score
TTAAGCCCACTATCTAGCCCGTGCTAG,-0.422 z-score
TGACGGCTCACTCCGTTGGAGTGCTAG,-0.901 z-score
TTAGGACTGGGGTATCGGTAAGTGCTA,-0.296 z-score
TTAGGTTTCGGGTATCGGATAGTGCTA,4.5 z-score
AAAAAAATCATTTTCTCTGTGTGCTAG,1.51 z-score
TTAGGTCTCCCTCTCCTTTAGTGCTAG,2.42 z-score
TTCGGACTGGACTATCGGTTAGTGCTA,-0.179 z-score
ATCTTTTTCCCTATTATATAGTGCTAG,3.82 z-score
GACGGTCTCGGTATCGGGATGTGCTAG,1.93 z-score
TTACTTCCCAATTGTCTTTTCGTGCTA,2.54 z-score
GACGGTATCCTTTTCCTGGCGTGCTAG,7.7 z-score
CTGCTTGAAACTCTTACCCCGTGCTAG,-0.0825 z-score
TCATGTATGAGCCTCTGACTGTGCTAG,-0.658 z-score
GTCGAACTGAGACTGGAGACGTGCTAG,-0.0575 z-score

# Set 2
# Target: Phosphate system positive regulatory protein PHO4, full length, GST-tagged (PHO4, Saccharomyces cerevisiae, UniProt P07270, residues 1-312)
# Technique: competition protein-binding microarray
# Form: double-stranded DNA, one strand shown
# Matrix: in vitro
# Tested at: 2 µM
# Setting: whole 60-bp probe, lowest competitor level
# Together with: Cbf1 competitor, 0.05 µM
# Direction: higher = stronger binding
# Construct (chain): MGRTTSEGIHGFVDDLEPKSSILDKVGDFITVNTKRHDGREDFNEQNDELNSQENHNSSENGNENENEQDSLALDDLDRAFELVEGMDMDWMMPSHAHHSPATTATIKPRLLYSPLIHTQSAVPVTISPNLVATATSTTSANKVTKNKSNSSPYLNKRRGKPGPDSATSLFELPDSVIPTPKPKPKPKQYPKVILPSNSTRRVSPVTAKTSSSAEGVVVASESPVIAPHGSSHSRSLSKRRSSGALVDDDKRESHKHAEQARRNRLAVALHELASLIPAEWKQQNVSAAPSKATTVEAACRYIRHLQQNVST
Sequence,fluorescence intensity [a.u.]
GGATGAAGTAGGAAACTCGTGAATATATAAACCCCGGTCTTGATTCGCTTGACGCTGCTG,5000
GTCTTGTCTCATTGTGTTGTGGGTGTCCCCACTTCAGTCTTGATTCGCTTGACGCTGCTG,5110
AAAGCGGTAATTTGCACTGTGGGTGCAGATATCTATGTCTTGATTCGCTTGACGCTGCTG,4900
TTTTAGAGGAAAGAGAACGTGGTGAAAAAGTCAAAAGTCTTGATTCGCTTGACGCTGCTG,11800
CTTCTGTAAATTTGCTGAGTGGGTGGACGCGCCCCGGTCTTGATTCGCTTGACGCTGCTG,3980
TGCGCAACAACTTGGTTTGTGGGTGTATGTCTAGAAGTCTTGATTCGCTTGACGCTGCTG,4440
AAAGCGGTAATTTTTCACGTGTCTTCACATATCTATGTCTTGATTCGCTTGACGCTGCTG,13300
TTCTTACTAAAATGTAGCGTGCATCCTTATAGGGCTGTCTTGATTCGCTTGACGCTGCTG,8230
GTAACGAAGCTTACCAGCATGATAATACCGTAAATCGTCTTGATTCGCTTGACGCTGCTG,3820
TCCCGTACATCGATGTACGTGATGGGTTTTTCTCATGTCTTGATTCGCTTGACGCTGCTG,5130
GTAGTTCCCAGTCTTTTCGTGATGGTCAACTTAACGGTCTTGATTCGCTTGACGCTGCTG,3980
AAATTACTAAGTTGCTTAGTGGGTGACGCCGTATGAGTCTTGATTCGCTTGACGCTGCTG,4070
GTCGAAAAACCTCCGCACGGCAGAAGTGTTATGCTGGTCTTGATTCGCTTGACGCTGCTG,5530
TATTTTAACATGGTCTCCGTGCCGACGGCGTACCCAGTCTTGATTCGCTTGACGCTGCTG,5150
CGTTCATTATCGCCCAATGTGACGGACAATCTCGGCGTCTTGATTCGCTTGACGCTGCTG,4950
ACAATTTCTACTCCACACGTGGAATACGAAACGGCCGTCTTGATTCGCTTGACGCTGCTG,13800
GCTGCGGCGGAAAAAAACGTGACGGCTTTTAGCACAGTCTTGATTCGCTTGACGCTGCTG,10700
CTTCTGTAAATTTGTCACCAGACTTGACGCGCCCCGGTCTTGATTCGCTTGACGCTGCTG,3330
AGAGGTATTACCCATCACGTGATGGTTATTTCTTTTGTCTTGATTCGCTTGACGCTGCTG,12900
GTTAAGCATAAAAAGCACGTGCTTTAGATGTTTTCAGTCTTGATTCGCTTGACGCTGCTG,16800

# Set 3
# Target: CCNA2, cyclin fold, Cln2 fusion (human)
# Technique: yeast growth competition, sequencing
# Matrix: yeast
# Setting: strong parent motif
# Reference: not given
# Direction: higher = stronger binding
# Starting sequence: E2F1 docking peptide (human); PPVKRRLDFETDH
Change,normalised enrichment score
R6N,3.63
E10C,6.17
D12A,6.39
P2D,5.71
L7M,2.15
F9I,1.69
L7P,0.175
V3F,4.74
K4I,4.98
R5M,3.14
T11C,5.81
F9N,0.71
V3T,6.06
D8N,6
D8M,6.17
R6I,4.03
R6K,5.79
R6M,5.63
R6V,5.25
P2V,6.42
L7A,0.302
F9K,0.155
E10F,6.45
T11I,5.85

# Set 4
# Target: Histone acetyltransferase KAT6A, winged helix 1, GST fusion (KAT6A, Homo sapiens, UniProt Q92794, residues 1-85)
# Technique: protein binding microarray
# Form: double-stranded DNA, one strand shown
# Matrix: in vitro
# Tested at: not given
# Setting: 8-mer, flanks averaged, mean of 2 arrays, mostly near background
# Reference: not given
# Direction: higher = stronger binding
# Target sequence (chain): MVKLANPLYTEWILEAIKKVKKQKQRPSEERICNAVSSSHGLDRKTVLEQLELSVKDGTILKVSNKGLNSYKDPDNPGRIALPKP
Sequence,E-score
AACAGCAG,-0.0803
CACCACTC,-0.0479
ACCGCTCT,0.183
CTACCGCA,0.209
ACTGACTC,-0.0436
ATATAAGG,-0.136
CTCATTAC,0.0499
CACTTAAC,-0.277
GCGAGCAA,0.0131
CTATATAG,-0.214
CCCCAGTA,-0.0106
GGGGGAGA,-0.0955
ACACGGTG,0.205
GTCGTGTA,-0.0959
CTTGCCAC,-0.0414
GCCTCTCC,-0.147
CGAAGGTA,-0.061
CCACGGGG,0.241
AACCGATG,-0.0352
CAGAGCGC,0.302
ACCCATAG,-0.165
GTATTTAA,-0.135
ACTCGCAG,-0.0856
AGTACCAT,-0.118
ACCATGAT,-0.102
